Measured values pooled from the literature.
Protocols differ between the studies behind these lines.

N=C(N)NCc1cn([C@@H]2[C@@H](OCCn3cc(-c4cc(OCCOCCO)c(C#Cc5cc(OCCOCCO)c(C#Cc6cc(OCCOCCO)c(-c7cn(CCO[C@H]8O[C@H](CO)[C@@H](O)[C@H](O)[C@@H]8n8cc(CNC(=N)N)nn8)nn7)cc6OCCOCCO)cc5OCCOCCO)cc4OCCOCCO)nn3)O[C@H](CO)[C@@H](O)[C@@H]2O)nn1.O=CO.O=CO — inhibition (rVSV-luc pseudotyped with SARS-CoV-2 S; L-SIGN-mediated trans-infection; Jurkat expressing L-SIGN; 5 µM): 98.5%
Cc1ccc(N2CC(N3CCC(C)(O)CC3)C2)cc1C(=O)NC1(c2ccc3c4c(cccc24)C(=O)N3C)CC1 — inhibition (SARS-CoV-2; viral replication; Vero C1008, XBB.1; 0.01715 µM): 15%
CC(C)CC(C(=O)N1CC2(CC1C#N)C(=O)Nc1ccccc12)N(C)C(=O)c1cc2c(F)cc(F)c(F)c2[nH]1 (stereo not drawn) — inhibition (pangolin coronavirus; viral replication; 1 µM): 100%
Cc1ccc(N2CC3CC(C2)N3)cc1C(=O)NC1(c2ccc3c4c(cccc24)C(=O)N3C)CC1 — inhibition (SARS-CoV-2; viral replication; Vero C1008, wild type; 0.05144 µM): 70%
CC(C)C1=CC2=CC[C@@H]3[C@](C)(CCC[C@@]3(C)C(=O)OCC#CCN3CCCC3)[C@H]2CC1 — inhibition (SARS-CoV-2 pseudovirus; pseudovirus infection; BHK-21-hACE2; 20.0 µM): > 60%
O=S(=O)(O)c1c2ccccc2c(-c2c3nc(c(-c4c5ccccc5c(S(=O)(=O)O)c5ccccc45)c4ccc([nH]4)c(-c4c5ccccc5c(S(=O)(=O)O)c5ccccc45)c4nc(c(-c5c6ccccc6c(S(=O)(=O)O)c6ccccc56)c5ccc2[nH]5)C=C4)C=C3)c2ccccc12 — inhibition (Orthopoxvirus vaccinia; viral replication; 50 µg/mL, 24 h): 89%
Cc1ccc(N2CCN(C)CC2)cc1C(=O)NC1(c2ccc3c4c(cccc24)CC3)CC1 — inhibition (SARS-CoV-2; viral replication; Vero C1008, wild type; 0.005716 µM): 0%
Cc1oc2nc1C(=O)N[C@](C)(C(=O)OC(C)C)c1nc(c(C)o1)C(=O)N[C@](C)(C(=O)OC(C)C)c1nc(c(C)o1)C(=O)N[C@]2(C)C(=O)OC(C)C — inhibition (SARS-CoV-2; viral adsorption; Vero E6, NRC-03-nhCoV; 2.5 µM): 0%
Cc1ccc(N2CC(N3CCC(C)(O)CC3)C2)cc1C(=O)NC1(c2ccc3c4c(cccc24)CC3)CC1 — inhibition (SARS-CoV-2; viral replication; Vero C1008, wild type; 0.01715 µM): 0%
COC(=O)c1cc2c(=O)n3ccccc3nc2n1Cc1ccccc1 — inhibition (Severe acute respiratory syndrome coronavirus 2; viral replication, inhibitor, qPCR; Vero C1008; 10 µM): 42.5%
CC(C)c1ccc2c(c1)CC[C@H]1[C@](C)(C(=O)OCC#CCN3CCOCC3)CCC[C@]21C — inhibition (SARS-CoV-2 pseudovirus; pseudovirus infection; BHK-21-hACE2; 20.0 µM): 37.8%
O=[N+]([O-])c1ccc(-n2nc(-c3ccccc3)cc2-c2ccc(F)cc2)c([N+](=O)[O-])c1 — inhibition (Japanese encephalitis virus; viral replication, item: viral RNA; SA14-14-2, mice, brain; ip, 100 mg/kg/day, 120 h): 33.3%
COC(=O)[C@]1(C)CCC[C@]2(C)[C@H]3C[C@H]4C(C(C)C)=C[C@]3(CC[C@H]21)[C@H]1[C@@H]4[C@@H](OCC#CCN2CCCC2)CC[C@@H]1O — inhibition (SARS-CoV-2 pseudovirus; pseudovirus infection; BHK-21-hACE2; 20.0 µM): 50.7%
Cc1ccc(N2CC3CC(C2)N3C)cc1C(=O)NC1(c2ccc3c4c(cccc24)C(=O)N3C)CC1 — inhibition (Severe acute respiratory syndrome coronavirus 2; viral replication; Vero C1008; 1.389 µM): 100%
CC(C)C1=CC2=C(C=O)C[C@@H]3[C@](C)(CCC[C@@]3(C)C(=O)OCC#CCN3CCCC3)[C@H]2CC1 — inhibition (SARS-CoV-2 pseudovirus; pseudovirus infection; BHK-21-hACE2; 20.0 µM): 19.7%
O=C(C=Cc1ccc(O)c(O)c1)OC1CC(O)(C(=O)O)CC(OC(=O)C=Cc2ccc(O)c(O)c2)C1O (stereo not drawn) — inhibition (Severe acute respiratory syndrome coronavirus 2; cytopathic effect, inhibitor; Vero C1008; 100 µM): 8.33%
CC(C)C1=C[C@@]23CC[C@@H]4[C@](C)(CCC[C@@]4(C)C(=O)OCC#CCN4CCOCC4)[C@H]2C[C@@H]1[C@H]1C(=O)OC(=O)[C@H]13 — inhibition (SARS-CoV-2 pseudovirus; pseudovirus infection; BHK-21-hACE2; 20.0 µM): 34.8%
Cc1oc2nc1C(=O)N[C@](C)(C(=O)O)c1nc(c(C)o1)C(=O)N[C@](C)(C(=O)O)c1nc(c(C)o1)C(=O)N[C@]2(C)C(=O)O — inhibition (SARS-CoV-2; viral replication; Vero E6, NRC-03-nhCoV; 20 µM): 38%

A few entries again:
Cc1ccc(N2CC3CC(C2)N3C)cc1C(=O)NC1(c2ccc3c4c(cccc24)C(=O)N3C)CC1 — inhibition (Severe acute respiratory syndrome coronavirus 2; viral replication; Vero C1008; 1.389 µM): 100%
CC(C)C1=CC2=C(C=O)C[C@@H]3[C@](C)(CCC[C@@]3(C)C(=O)OCC#CCN3CCCC3)[C@H]2CC1 — inhibition (SARS-CoV-2 pseudovirus; pseudovirus infection; BHK-21-hACE2; 20.0 µM): 19.7%
O=C(C=Cc1ccc(O)c(O)c1)OC1CC(O)(C(=O)O)CC(OC(=O)C=Cc2ccc(O)c(O)c2)C1O (stereo not drawn) — inhibition (Severe acute respiratory syndrome coronavirus 2; cytopathic effect, inhibitor; Vero C1008; 100 µM): 8.33%
